Experimental data of several laboratories.
Lines come from different studies, so protocols differ.
ZAP70: Tyrosine-protein kinase ZAP-70 (ZAP70, Homo sapiens, UniProt P43403)
Sequence of UniProt P43403 (whole entry, looked up): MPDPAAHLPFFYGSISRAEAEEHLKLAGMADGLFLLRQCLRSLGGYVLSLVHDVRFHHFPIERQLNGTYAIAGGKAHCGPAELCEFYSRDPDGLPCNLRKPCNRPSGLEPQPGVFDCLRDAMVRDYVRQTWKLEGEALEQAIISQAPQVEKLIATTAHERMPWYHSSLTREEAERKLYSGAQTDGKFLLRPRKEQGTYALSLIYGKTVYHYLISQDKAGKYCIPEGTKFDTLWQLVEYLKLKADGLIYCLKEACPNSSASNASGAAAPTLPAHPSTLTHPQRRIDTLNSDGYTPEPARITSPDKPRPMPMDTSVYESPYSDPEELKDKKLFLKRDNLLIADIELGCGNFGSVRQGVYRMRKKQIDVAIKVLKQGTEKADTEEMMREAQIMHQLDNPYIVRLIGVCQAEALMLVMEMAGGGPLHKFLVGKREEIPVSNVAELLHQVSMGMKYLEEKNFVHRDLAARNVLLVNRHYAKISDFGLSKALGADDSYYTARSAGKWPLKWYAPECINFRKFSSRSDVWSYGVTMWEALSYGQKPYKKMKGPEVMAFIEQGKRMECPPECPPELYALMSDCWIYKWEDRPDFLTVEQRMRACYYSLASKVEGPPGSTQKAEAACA
EIF2AK2: Interferon-induced, double-stranded RNA-activated protein kinase (EIF2AK2, Homo sapiens, UniProt P19525)
Sequence of UniProt P19525 (whole entry, looked up): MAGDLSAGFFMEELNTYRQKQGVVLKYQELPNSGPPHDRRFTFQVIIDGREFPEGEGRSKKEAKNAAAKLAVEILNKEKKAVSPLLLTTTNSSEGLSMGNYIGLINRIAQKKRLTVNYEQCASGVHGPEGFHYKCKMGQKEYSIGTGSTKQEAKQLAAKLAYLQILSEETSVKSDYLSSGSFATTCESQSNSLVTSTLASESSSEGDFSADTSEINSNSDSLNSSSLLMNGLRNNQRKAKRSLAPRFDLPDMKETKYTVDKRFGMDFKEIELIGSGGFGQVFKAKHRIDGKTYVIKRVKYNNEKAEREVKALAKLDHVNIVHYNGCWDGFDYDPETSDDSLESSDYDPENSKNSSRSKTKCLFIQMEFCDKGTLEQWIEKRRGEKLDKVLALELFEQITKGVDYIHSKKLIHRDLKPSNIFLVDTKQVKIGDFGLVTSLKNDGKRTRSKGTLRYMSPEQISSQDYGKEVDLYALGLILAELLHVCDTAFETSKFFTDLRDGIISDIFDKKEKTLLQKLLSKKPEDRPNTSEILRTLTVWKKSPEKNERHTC
Sequence of UniProt P11309 (whole entry, looked up): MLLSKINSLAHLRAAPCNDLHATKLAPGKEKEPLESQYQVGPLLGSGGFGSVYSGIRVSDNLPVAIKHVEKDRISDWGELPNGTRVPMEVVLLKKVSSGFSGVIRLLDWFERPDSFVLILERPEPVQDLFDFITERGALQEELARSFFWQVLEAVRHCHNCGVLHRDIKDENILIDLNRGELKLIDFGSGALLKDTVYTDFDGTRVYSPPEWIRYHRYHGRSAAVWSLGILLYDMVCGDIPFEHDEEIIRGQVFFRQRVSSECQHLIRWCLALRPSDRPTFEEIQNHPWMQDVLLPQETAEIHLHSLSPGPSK

Cc1cc([C@@H](C)Nc2ccccc2C(=O)O)c2nc(N3CCC(F)(F)CC3)c(C#N)c(=O)n2c1  remaining binding (ZAP70; binding, competition with immobilised ligand; 10 µM): 100%
COc1cc(-c2cncc3c2CN(C)Cc2cc(N4CCNCC4)ccc2-3)cc(OC)c1OC  remaining activity (PIM1 (Homo sapiens, UniProt P11309); enzyme activity, inhibitor; 1 µM): 105%
[2H]c1c([2H])c([C@]2([2H])CCCN2C(=O)C(C)(C)Oc2ccc3cn[nH]c3c2)c([2H])c([2H])c1C([2H])([2H])[2H]  remaining binding (ZAP70; binding, competition with immobilised ligand; 1 µM): 60%
CCCCC(=O)Nc1ccc(-c2ccc3ncn(CCC)c(=O)c3c2)cn1  remaining binding (EIF2AK2; binding, competition with immobilised ligand; 0.5 µM): 90%
CN(O)N=Nc1ccc(S(=O)(=O)Nc2nccs2)cc1  inhibition (DPPH scavenging, absorbance; 20 µg/mL): 3.98%
C1=C/COCc2cc(ccc2OCCN2CCCC2)Nc2nccc(n2)-c2cccc(c2)COC/1  remaining signal (EIF2AK2; cell-free assay; 0.1 µM): 90%
O=C1O[C@H]([C@@H](O)CO)C(O)=C1O  inhibition (DPPH scavenging, absorbance; 30 µg/mL): 51.4%
O=c1nc(N2CCN(CC3CCCCC3)CC2)sc2c([N+](=O)[O-])cc(C(F)(F)F)cc12  concentration (CD-1 mouse, plasma; oral, 100 mg/kg, 4.98 min): 245 ng/mL

A few entries again:
O=c1nc(N2CCN(CC3CCCCC3)CC2)sc2c([N+](=O)[O-])cc(C(F)(F)F)cc12  concentration (CD-1 mouse, plasma; oral, 100 mg/kg, 4.98 min): 245 ng/mL
